Results gathered from unrelated publications.
PRKG1: cGMP-dependent protein kinase 1 (PRKG1, Homo sapiens, UniProt Q13976)
Chain of UniProt Q13976 (whole entry, looked up): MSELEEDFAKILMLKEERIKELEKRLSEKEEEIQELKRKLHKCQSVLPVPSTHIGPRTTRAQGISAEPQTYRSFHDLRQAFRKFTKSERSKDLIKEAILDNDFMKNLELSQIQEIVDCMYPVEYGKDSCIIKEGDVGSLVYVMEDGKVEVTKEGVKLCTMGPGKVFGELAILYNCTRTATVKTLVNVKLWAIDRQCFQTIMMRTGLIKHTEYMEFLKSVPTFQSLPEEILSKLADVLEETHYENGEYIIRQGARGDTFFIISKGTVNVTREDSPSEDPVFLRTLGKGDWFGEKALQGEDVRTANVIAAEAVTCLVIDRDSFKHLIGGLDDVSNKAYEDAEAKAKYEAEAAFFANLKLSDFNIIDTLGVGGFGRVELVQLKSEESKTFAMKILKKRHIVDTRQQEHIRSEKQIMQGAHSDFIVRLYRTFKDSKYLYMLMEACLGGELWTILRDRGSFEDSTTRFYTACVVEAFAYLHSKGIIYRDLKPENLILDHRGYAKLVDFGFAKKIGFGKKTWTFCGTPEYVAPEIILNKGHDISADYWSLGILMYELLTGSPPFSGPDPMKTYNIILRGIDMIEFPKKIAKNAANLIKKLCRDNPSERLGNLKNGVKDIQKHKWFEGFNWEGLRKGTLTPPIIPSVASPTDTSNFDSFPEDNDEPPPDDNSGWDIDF
PRKG1 isoform beta: cGMP-dependent protein kinase 1, isoform beta (PRKG1, Homo sapiens, UniProt Q13976)

| Compound | target | assay | conditions | how to read | measurement | result |
| --- | --- | --- | --- | --- | --- | --- |
| CC(C)(O)[C@H]1CC[C@H](Nc2ccc3ncc(-c4cccc(C(F)(F)F)c4)n3n2)CC1 | PRKG1 | enzyme activity, inhibitor | 1 µM, together with: 10 µM ATP | baseline: DMSO | remaining activity | 89.6% |
| CCN(CC)c1ccc(C2=NNC(=O)CC2C)cc1[N+](=O)[O-] (centres unmarked) | PRKG1 isoform beta | kinase activity, inhibitor | 10 µM |  | remaining activity | 90% |
| Cc1cc(NC(=O)c2cccc3cc(-c4cccc5[nH]nc(N)c45)ccc23)ccc1F | PRKG1 isoform beta | enzyme activity, kinase profiling panel | 0.1 µM |  | remaining activity | 70% |
| COc1cc(F)ccc1-c1ncnc(Nc2cccc(C[S@](C)(=N)=O)c2)n1 | PRKG1 isoform beta | kinase activity | 10 µM, together with: 10 µM ATP |  | remaining activity | 112% |
| COc1cc(-c2cncc3c2CN(C)Cc2cc(N4CCNCC4)ccc2-3)cc(OC)c1OC | PRKG1 isoform beta | enzyme activity | 1 µM, together with: 10 µM ATP | baseline: DMSO | remaining activity | 107% |
| CCCOc1ccc(OC)c(F)c1C(=O)c1ccc(C(=O)N[C@@H]2CNC[C@H]2NC(=O)c2ccc3[nH]ncc3c2)cc1 | PRKG1 isoform beta | kinase activity | 10 µM |  | remaining activity | -1% |
| Cc1ccc(NC(=O)c2ccc(C)c(C(F)(F)F)c2)cc1C#Cc1nn(C2CCC(O)CC2)c2ncnc(N)c12 (centres unmarked) | PRKG1 isoform beta | enzyme activity | 10 µM, together with: ATP 10 µM |  | remaining activity | 115% |
| CC(C)c1ccc(NC(=O)c2cccs2)c(-c2nc3ccccc3[nH]c2=O)c1 | PRKG1 isoform beta | kinase activity | 1 µM |  | remaining activity | 95% |
| Cn1cnc(Br)c1C1=CN(c2ncnc3[nH]cnc23)CCS1 | PRKG1 isoform beta | enzyme activity | 0.05 µM |  | inhibition | 68.8% |
| Cc1ccc(C(=O)NCc2ccsc2)cc1C#Cc1cn(C(C)C)c2ncnc(N)c12 | PRKG1 isoform beta | kinase activity | 1 µM, together with: ATP at Km |  | remaining activity | 126% |
| CN1CC(Oc2cnc(C#N)cc2-c2ccn3nc(NC(=O)C4CC4)cc3c2)C1 | PRKG1 isoform beta | inhibitor, KinaseProfiler panel | 1 µM |  | inhibition | 3% |
| C=CC(=O)N1CCC(COCC(=O)N2CCN(c3nc(-c4cnc(N)nc4C(F)F)nc(N4CCOC[C@@H]4C)n3)CC2)CC1 | PRKG1 | KINOMEscan | 1 µM |  | remaining binding | 96% |
| Cc1cc(Nc2cc(N3CCN(C)CC3)nc(Sc3ccc(NC(=O)C4CC4)cc3)n2)[nH]n1 | PRKG1 isoform beta | kinase activity, KinaseProfiler | 0.03 µM, species human | baseline: control | remaining activity | 98% |
| Cc1cnc(NC2CCOCC2)nc1-n1cnc(C(=O)NC(CN)c2cc(F)cc(Cl)c2)c1 (centres unmarked) | PRKG1 isoform beta | radiometric | 1 µM |  | remaining activity | 103% |

Excerpt of the above:
| Compound | target | assay | conditions | how to read | measurement | result |
| --- | --- | --- | --- | --- | --- | --- |
| Cc1ccc(NC(=O)c2ccc(C)c(C(F)(F)F)c2)cc1C#Cc1nn(C2CCC(O)CC2)c2ncnc(N)c12 (centres unmarked) | PRKG1 isoform beta | enzyme activity | 10 µM, together with: ATP 10 µM |  | remaining activity | 115% |
| CCN(CC)c1ccc(C2=NNC(=O)CC2C)cc1[N+](=O)[O-] (centres unmarked) | PRKG1 isoform beta | kinase activity, inhibitor | 10 µM |  | remaining activity | 90% |
